{"data": "Assay results pooled from the literature", "B1": "enzyme (Streptomyces platensis, UniProt A0A0A0V031); chain MQHTTIGDVLREHRRSHPGRTALVDGPVRLTWPELDDRVNRLAGSLAASGIGRGDRIMWLGQNSFRVYELIAAAGKLGAMVCVGYWRWAPPEMEFALRDFDPHLVVWQHQEIHETVARTREALGSDDTARWLRHDSAPQDPDGYEAFLAAGGLADPDLDIDPDSPVLVLYTAAMSGRQCGSLLSHTNLIAMATAAAWLGDIDHTTAFLNSGPMFHIGNHQFWGMPTLLMAGKNVIVRRVVAEEVRDLLVAEECTHAFLMPPTVAEIVRLNRDTGHDLSRLRATVAPHLWEGMATTDTSRFTRSGAAAGRGYGQTELSGFAVTAAYGGPAAGNAGRPGPGLTVRVLDTAGRECAVGEAGEICARGTVVHRGYWNRDEVNAHRFRSGWWHTTDLGRREPDGSLTFLGTTTRMLKSAAENIFPAEVENCIEQHPAVREAAVIGVPNTRWAQDVKAVVVLEPDAGVSEQEIIDHCRPRIASYKKPKSVAFAAALPRTVSGARDYDALDKEYGGGGYPGAATLGPGR", "B2": "SULT1A3 (Homo sapiens, UniProt P0DMM9); chain MELIQDTSRPPLEYVKGVPLIKYFAEALGPLQSFQARPDDLLINTYPKSGTTWVSQILDMIYQGGDLEKCNRAPIYVRVPFLEVNDPGEPSGLETLKDTPPPRLIKSHLPLALLPQTLLDQKVKVVYVARNPKDVAVSYYHFHRMEKAHPEPGTWDSFLEKFMAGEVSYGSWYQHVQEWWELSRTHPVLYLFYEDMKENPKREIQKILEFVGRSLPEETMDFMVQHTSFKEMKKNPMTNYTTVPQELMDHSISPFMRKGMAGDWKTTFTVAQNERFDADYAEKMAGCSLSFRSEL", "B3": "Msrb2 (Mus musculus, UniProt Q78J03); chain ADWQKKLTPEQFYVTREKGTEAPFSGMYLNNKETGMYHCVCCDSPLFSSEKKYCSGTGWPSFSEAYGSKGSDESHTGILRRLDTSLGCPRMEVVCKQCEAHLGHVFPDGPKPTGQRFCINSVALKFKPSKP", "note": "Protocols differ between the studies behind these lines. Numbers after ± are the reported error.", "UniProt P19525, sequence (whole entry, unmodified, looked up)": "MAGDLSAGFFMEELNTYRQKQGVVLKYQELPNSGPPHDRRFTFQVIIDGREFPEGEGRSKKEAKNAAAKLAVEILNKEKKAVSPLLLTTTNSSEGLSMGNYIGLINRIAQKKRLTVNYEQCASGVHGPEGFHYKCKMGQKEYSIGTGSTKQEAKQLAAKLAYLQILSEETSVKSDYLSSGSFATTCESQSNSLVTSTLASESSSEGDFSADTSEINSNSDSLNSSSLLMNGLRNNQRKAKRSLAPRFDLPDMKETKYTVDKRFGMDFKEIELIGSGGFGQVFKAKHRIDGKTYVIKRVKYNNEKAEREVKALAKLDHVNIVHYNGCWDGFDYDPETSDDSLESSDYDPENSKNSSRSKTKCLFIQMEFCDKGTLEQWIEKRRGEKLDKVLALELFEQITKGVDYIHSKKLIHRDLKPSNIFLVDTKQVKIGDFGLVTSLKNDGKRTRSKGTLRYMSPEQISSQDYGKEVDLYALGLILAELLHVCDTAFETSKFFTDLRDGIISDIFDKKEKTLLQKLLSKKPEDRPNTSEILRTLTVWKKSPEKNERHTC", "UniProt P49888, sequence (whole entry, looked up)": "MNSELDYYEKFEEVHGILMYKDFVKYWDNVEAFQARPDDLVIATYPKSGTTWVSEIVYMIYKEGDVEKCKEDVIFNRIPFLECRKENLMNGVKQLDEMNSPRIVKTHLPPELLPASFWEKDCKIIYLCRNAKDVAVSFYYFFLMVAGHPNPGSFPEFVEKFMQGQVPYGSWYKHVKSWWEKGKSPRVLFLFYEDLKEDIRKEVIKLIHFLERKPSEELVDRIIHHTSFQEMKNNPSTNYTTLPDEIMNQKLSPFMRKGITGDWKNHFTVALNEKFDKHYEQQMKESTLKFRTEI"}
{"Molecule": "B1 (enzyme)", "tested on": "C[C@@]12CCC[C@@](C)(C(=O)OP(=O)(O)OC[C@H]3O[C@@H](n4cnc5c(N)ncnc54)[C@H](O)[C@@H]3O)[C@H]1C[C@@H](O)[C@]13C[C@H]4C[C@H](O[C@@]4(C)C1)[C@@H]23", "assay": "steady-state kinetics", "setting": "pH 7.8, 25 °C", "quantity": "Vmax", "result": "12.9 µmol/min"}
{"Molecule": "SULT1E1 (Homo sapiens, UniProt P49888)", "tested on": "O=C(O[C@@H]1Cc2c(O)cc(O)cc2O[C@@H]1c1cc(O)c(O)c(O)c1)c1cc(O)c(O)c(O)c1", "assay": "steady-state kinetics", "setting": "pH 7.4, not purified", "quantity": "Vmax", "result": "0.00824 µmol/min/mg"}
{"Molecule": "RNA 1 GGAGGAUGUUAAUUGGCGUGUCUUGUCUGCAACGGUAUUC / RNA 2 GAAUACCGUUGCAGACAAGACACGCCAAUUAACAUCCUCC (dsRNA)", "tested on": "EIF2AK2 1-185 Y142W/R107A (Homo sapiens, UniProt P19525)", "assay": "tryptophan fluorescence anisotropy", "test system": "double-stranded RNA", "setting": "1 µM", "quantity": "binding", "result": "binds"}
{"Molecule": "CSCC[C@H](NC(=O)[C@H](CC(C)C)NC(=O)[C@H](Cc1c[nH]cn1)NC(=O)CNC(=O)[C@@H](NC(=O)[C@H](C)NC(=O)[C@H](Cc1c[nH]c2ccccc12)NC(=O)[C@H](CCC(N)=O)NC(=O)CCOCCOCCOCCOCCNC(=O)CN1CCN(CC(=O)O)CCN(CC(=O)O)CCN(CC(=O)O)CC1)C(C)C)C(N)=O [indium-111 labelled]", "test system": "Swiss nu/nu mice, PC-3 xenograft", "setting": "i.v., 10 pmol, 1 to 4 h", "how to read": "reference: earlier time point", "quantity": "tumour to pancreas ratio change", "result": "1.2 fold"}
{"Molecule": "N=C(N)NCCC[C@@H]1NC(=O)[C@H](CCCCNC(=O)CC[C@H](NC(=O)CC[C@H](NC(=O)CN2CCN(CC(=O)O)CCN(CC(=O)O)CCN(CC(=O)O)CC2)C(=O)N[C@@H](CCC(=O)NCCCC[C@@H]2NC(=O)[C@@H](Cc3ccccc3)NC(=O)[C@H](CC(=O)O)NC(=O)CNC(=O)[C@H](CCCNC(=N)N)NC2=O)C(=O)NCCCC[C@@H]2NC(=O)[C@@H](Cc3ccccc3)NC(=O)[C@H](CC(=O)O)NC(=O)CNC(=O)[C@H](CCCNC(=N)N)NC2=O)C(=O)NCCCC[C@@H]2NC(=O)[C@@H](Cc3ccccc3)NC(=O)[C@H](CC(=O)O)NC(=O)CNC(=O)[C@H](CCCNC(=N)N)NC2=O)NC(=O)[C@@H](Cc2ccccc2)NC(=O)[C@H](CC(=O)O)NC(=O)CNC1=O [indium-111 labelled]", "test system": "female athymic nu/nu mice, kidney", "setting": "intravenous, 4 h", "quantity": "tissue uptake", "result": "5.83 ± 0.7 %ID/g"}
{"Molecule": "N=C(N)NCCC[C@@H]1NC(=O)[C@H](CCCCNC(=S)Nc2ccc(CC3CN(CC(=O)O)CCN(CC(=O)O)CCN(CC(=O)O)CCN3CC(=O)O)cc2)NC(=O)[C@@H](Cc2ccc(O)cc2)NC(=O)[C@H](CC(=O)O)NC(=O)CNC1=O (stereo partly shown) [actinium-225 labelled]", "test system": "U-87 MG tumour-bearing mice", "setting": "24 h", "quantity": "tumour to blood ratio", "result": 42}
{"Molecule": "N=C(N)NCCC[C@@H]1NC(=O)[C@H](CCCCNC(=O)CNC(=O)CNC(=O)CNC(=O)CC[C@H](NC(=O)CNC(=O)CNC(=O)CNC(=O)CC[C@H](NC(=O)CN2CCN(CC(=O)O)CCN(CC(=O)O)CCN(CC(=O)O)CC2)C(=O)NCC(=O)NCC(=O)NCC(=O)N[C@@H](CCC(=O)NCC(=O)NCC(=O)NCC(=O)NCCCC[C@@H]2NC(=O)[C@@H](Cc3ccccc3)NC(=O)[C@H](CC(=O)O)NC(=O)CNC(=O)[C@H](CCCNC(=N)N)NC2=O)C(=O)NCC(=O)NCC(=O)NCC(=O)NCCCC[C@@H]2NC(=O)[C@@H](Cc3ccccc3)NC(=O)[C@H](CC(=O)O)NC(=O)CNC(=O)[C@H](CCCNC(=N)N)NC2=O)C(=O)NCC(=O)NCC(=O)NCC(=O)NCCCC[C@@H]2NC(=O)[C@@H](Cc3ccccc3)NC(=O)[C@H](CC(=O)O)NC(=O)CNC(=O)[C@H](CCCNC(=N)N)NC2=O)NC(=O)[C@@H](Cc2ccccc2)NC(=O)[C@H](CC(=O)O)NC(=O)CNC1=O [indium-111 labelled]", "test system": "female athymic nu/nu mice, muscle", "setting": "intravenous, 111 kBq, 1 h", "quantity": "tissue uptake", "result": "1.14 ± 0.23 %ID/g"}
{"Molecule": "B2 (SULT1A3)", "tested on": "O=C(O[C@@H]1Cc2c(O)cc(O)cc2O[C@@H]1c1cc(O)c(O)c(O)c1)c1cc(O)c(O)c(O)c1", "assay": "steady-state kinetics", "setting": "pH 7.4, not purified", "quantity": "Vmax", "result": "0.039 µmol/min/mg"}
{"Molecule": "B3 (Msrb2)", "tested on": "CN(C)c1ccc(/N=N/c2ccc(S(=O)(=O)N[C@@H](CC[S@@+](C)[O-])C(=O)O)cc2)cc1", "assay": "steady-state kinetics", "setting": "pH 7.5, NaCl 50 mM, together with: DTT 20 mM", "quantity": "Vmax", "result": "0.279 µmol/min/mg"}
{"Molecule": "N=C(N)NCCC[C@@H]1NC(=O)[C@H](CCCCNC(=O)CNC(=O)CNC(=O)CNC(=O)CC[C@H](NC(=O)CNC(=O)CNC(=O)CNC(=O)CN2CCN(CC(=O)O)CCN(CC(=O)O)CCN(CC(=O)O)CC2)C(=O)NCC(=O)NCC(=O)NCC(=O)NCCCC[C@@H]2NC(=O)[C@@H](Cc3ccccc3)NC(=O)[C@H](CC(=O)O)NC(=O)CNC(=O)[C@H](CCCNC(=N)N)NC2=O)NC(=O)[C@@H](Cc2ccccc2)NC(=O)[C@H](CC(=O)O)NC(=O)CNC1=O [indium-111 labelled]", "test system": "female athymic nu/nu mice, kidney", "setting": "intravenous, 4 h", "quantity": "tissue uptake", "result": "2.69 ± 0.1 %ID/g"}
{"note": "For quick reference, copied from above:"}
{"Molecule": "CSCC[C@H](NC(=O)[C@H](CC(C)C)NC(=O)[C@H](Cc1c[nH]cn1)NC(=O)CNC(=O)[C@@H](NC(=O)[C@H](C)NC(=O)[C@H](Cc1c[nH]c2ccccc12)NC(=O)[C@H](CCC(N)=O)NC(=O)CCOCCOCCOCCOCCNC(=O)CN1CCN(CC(=O)O)CCN(CC(=O)O)CCN(CC(=O)O)CC1)C(C)C)C(N)=O [indium-111 labelled]", "test system": "Swiss nu/nu mice, PC-3 xenograft", "setting": "i.v., 10 pmol, 1 to 4 h", "how to read": "reference: earlier time point", "quantity": "tumour to pancreas ratio change", "result": "1.2 fold"}
